# Literature values, collected from citations in different studies.
# Chains of the proteins cited; added tags and fusions are not shown. Residues count along the entry.
# UniProt P35372, whole entry: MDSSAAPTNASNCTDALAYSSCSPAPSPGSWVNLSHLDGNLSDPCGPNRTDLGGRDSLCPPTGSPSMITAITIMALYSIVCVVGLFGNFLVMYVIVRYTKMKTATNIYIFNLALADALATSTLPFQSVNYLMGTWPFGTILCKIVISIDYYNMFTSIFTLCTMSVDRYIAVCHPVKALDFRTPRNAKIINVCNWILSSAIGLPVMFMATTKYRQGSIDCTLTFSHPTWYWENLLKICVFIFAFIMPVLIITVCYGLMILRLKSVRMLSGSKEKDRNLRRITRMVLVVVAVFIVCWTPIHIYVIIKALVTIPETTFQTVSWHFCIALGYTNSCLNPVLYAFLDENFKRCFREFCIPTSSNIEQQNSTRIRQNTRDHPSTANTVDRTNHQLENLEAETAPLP
# UniProt P31424, 21-1203 limits assumed: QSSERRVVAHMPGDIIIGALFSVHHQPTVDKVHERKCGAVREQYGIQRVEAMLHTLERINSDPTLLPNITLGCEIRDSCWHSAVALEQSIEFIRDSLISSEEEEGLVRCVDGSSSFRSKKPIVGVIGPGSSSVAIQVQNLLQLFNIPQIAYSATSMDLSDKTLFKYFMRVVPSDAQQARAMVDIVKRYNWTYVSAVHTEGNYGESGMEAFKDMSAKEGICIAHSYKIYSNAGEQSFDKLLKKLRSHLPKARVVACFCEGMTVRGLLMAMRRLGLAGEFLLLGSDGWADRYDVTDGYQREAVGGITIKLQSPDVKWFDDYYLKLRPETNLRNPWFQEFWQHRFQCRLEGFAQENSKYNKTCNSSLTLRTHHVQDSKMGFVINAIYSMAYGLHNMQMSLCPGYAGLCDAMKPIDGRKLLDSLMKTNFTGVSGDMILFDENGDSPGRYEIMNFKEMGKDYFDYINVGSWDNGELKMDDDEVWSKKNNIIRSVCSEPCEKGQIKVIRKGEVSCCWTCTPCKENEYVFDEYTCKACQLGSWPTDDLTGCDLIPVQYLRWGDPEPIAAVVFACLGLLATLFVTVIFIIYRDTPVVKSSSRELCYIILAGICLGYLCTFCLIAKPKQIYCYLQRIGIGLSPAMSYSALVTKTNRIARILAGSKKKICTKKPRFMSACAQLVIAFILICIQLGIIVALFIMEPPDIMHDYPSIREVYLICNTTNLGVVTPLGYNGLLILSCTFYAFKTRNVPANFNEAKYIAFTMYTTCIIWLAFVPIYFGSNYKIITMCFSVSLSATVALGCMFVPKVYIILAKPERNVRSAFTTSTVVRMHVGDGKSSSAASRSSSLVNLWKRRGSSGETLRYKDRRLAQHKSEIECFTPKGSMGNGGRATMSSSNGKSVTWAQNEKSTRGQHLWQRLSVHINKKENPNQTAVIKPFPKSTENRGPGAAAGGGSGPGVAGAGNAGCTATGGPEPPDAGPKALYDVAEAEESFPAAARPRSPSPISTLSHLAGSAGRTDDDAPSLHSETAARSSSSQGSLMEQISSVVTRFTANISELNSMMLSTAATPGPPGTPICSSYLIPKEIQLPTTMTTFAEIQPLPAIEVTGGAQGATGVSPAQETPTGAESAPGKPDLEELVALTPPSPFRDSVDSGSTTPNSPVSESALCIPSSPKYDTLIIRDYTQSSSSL
# UniProt O33590, 1-425: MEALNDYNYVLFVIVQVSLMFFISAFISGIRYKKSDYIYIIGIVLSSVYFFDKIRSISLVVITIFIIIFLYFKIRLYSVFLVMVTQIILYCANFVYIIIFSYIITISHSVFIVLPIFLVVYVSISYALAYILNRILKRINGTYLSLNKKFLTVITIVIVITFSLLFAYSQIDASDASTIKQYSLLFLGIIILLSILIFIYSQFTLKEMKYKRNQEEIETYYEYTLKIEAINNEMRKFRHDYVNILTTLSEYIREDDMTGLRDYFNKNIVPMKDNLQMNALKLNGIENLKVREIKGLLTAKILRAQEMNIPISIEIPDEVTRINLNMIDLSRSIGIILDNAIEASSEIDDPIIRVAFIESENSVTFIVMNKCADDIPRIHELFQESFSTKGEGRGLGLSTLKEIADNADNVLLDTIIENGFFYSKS
# UniProt Q2FV99, 60-206 limits assumed: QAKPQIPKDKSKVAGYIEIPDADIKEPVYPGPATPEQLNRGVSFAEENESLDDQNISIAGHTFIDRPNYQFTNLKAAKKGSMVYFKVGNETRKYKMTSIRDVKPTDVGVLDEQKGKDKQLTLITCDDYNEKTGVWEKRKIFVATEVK
# UniProt P28335, whole entry, looked up: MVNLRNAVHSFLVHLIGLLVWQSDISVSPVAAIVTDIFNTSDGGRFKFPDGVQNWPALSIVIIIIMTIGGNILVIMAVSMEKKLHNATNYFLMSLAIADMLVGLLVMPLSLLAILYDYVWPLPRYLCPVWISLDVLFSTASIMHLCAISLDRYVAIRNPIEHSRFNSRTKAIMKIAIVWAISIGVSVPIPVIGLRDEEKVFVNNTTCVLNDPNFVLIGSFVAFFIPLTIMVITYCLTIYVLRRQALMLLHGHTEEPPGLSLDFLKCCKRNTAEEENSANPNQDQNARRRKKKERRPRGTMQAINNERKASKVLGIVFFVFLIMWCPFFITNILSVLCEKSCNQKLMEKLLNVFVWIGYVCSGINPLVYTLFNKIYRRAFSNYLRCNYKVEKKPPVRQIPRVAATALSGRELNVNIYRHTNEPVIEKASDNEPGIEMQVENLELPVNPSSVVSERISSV
# UniProt A0A0H2V7F6, 25-182 limits assumed: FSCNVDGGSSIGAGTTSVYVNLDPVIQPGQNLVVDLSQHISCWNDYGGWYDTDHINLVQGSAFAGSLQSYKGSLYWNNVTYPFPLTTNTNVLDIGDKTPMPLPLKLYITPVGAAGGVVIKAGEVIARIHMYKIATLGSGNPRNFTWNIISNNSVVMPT
# UniProt P33535, whole entry: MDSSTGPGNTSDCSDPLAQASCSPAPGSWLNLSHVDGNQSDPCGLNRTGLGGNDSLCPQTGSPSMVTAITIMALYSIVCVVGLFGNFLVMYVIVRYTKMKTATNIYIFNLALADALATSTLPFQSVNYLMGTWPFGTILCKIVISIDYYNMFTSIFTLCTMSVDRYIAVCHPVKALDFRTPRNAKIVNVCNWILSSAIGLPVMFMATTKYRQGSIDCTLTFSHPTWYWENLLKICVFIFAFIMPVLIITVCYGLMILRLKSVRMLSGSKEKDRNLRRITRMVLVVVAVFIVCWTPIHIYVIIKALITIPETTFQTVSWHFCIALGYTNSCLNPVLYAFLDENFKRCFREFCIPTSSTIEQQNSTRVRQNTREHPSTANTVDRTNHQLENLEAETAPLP
# UniProt P31645, whole entry: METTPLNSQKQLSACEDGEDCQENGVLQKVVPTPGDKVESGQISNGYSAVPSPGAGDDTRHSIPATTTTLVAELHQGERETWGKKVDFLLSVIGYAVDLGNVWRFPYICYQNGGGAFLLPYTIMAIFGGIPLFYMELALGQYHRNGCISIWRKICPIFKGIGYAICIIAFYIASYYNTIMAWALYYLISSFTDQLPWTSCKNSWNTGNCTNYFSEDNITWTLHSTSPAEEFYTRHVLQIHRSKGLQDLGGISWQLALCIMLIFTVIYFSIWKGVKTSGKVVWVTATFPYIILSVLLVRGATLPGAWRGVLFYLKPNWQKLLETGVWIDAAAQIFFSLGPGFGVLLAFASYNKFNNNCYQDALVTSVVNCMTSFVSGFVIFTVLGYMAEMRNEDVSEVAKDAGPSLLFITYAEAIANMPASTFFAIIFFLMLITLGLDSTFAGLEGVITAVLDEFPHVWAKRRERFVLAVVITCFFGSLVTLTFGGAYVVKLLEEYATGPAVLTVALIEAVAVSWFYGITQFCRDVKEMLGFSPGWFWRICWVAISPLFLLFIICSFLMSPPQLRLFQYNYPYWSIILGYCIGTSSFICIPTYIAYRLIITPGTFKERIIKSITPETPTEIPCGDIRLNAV
# UniProt P62942, 2-108 limits assumed: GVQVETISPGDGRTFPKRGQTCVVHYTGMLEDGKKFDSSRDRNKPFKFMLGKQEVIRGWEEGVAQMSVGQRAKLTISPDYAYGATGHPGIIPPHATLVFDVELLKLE
# UniProt Q99808, 2-456 limits assumed: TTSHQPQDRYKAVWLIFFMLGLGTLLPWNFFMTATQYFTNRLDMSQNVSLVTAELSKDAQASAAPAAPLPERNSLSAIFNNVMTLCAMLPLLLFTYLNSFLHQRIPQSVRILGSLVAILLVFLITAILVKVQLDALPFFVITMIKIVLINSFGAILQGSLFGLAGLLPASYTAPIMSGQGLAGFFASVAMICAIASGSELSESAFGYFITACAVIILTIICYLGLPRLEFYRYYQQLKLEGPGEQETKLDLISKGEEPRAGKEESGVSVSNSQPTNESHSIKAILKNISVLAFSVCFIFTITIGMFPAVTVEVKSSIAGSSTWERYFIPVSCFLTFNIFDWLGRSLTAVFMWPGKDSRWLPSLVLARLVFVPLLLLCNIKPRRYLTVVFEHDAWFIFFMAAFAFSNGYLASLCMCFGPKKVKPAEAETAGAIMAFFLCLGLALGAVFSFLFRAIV
# UniProt Q8VSX2, 1-224: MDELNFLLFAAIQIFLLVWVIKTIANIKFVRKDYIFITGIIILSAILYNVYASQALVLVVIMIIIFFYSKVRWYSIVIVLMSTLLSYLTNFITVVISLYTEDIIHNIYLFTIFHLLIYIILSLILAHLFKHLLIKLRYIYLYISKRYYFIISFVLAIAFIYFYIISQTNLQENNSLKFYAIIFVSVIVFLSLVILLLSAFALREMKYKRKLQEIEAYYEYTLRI
# UniProt P42866, whole entry: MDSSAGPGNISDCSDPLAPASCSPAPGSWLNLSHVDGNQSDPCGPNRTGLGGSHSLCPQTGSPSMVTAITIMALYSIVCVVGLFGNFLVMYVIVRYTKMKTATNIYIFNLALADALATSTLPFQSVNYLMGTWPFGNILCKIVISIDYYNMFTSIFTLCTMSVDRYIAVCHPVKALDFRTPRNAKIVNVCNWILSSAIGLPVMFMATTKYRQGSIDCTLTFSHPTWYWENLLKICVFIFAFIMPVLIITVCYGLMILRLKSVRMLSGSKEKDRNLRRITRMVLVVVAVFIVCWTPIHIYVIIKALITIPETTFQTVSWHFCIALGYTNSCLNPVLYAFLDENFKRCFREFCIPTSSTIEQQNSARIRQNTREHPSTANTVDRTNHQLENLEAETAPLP
# UniProt P9WPP7, whole entry: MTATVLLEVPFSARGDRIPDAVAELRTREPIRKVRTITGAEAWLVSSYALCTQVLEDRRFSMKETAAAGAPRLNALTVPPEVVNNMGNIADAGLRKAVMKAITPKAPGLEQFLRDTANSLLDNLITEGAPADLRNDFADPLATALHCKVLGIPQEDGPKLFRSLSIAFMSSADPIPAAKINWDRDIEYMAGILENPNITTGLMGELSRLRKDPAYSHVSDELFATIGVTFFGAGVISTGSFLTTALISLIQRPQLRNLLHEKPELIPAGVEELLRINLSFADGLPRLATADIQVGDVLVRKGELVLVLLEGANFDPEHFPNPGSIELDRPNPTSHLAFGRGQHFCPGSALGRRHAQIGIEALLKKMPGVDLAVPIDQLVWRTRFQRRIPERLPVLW
# UniProt P25084, whole entry: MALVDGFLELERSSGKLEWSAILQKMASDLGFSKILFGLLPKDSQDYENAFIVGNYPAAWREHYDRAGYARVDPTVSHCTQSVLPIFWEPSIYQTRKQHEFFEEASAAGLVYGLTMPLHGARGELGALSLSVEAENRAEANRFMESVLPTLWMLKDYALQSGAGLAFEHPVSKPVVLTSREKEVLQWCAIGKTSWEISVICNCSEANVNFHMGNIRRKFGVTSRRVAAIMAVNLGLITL
# ± gives the spread as reported.
SMILES,tested on,test,system,setting,quantity,value
c1ccc2c[n+](CCCCCCCC[n+]3ccc4ccccc4c3)ccc2c1,BJ fibroblasts,"cytotoxicity, MTT",,,IC50,1010 µM
Ic1ccc(CSCn2ccnc2)cc1,"OPRM1 (Homo sapiens, UniProt P35372)",,,,Ki,> 10 µM
CCC(=O)Nc1c(NC[C@H](O)[C@H](O)[C@H](O)CO)[nH]c(=O)[nH]c1=O,Bacillus subtilis lumazine synthase,inhibitor,,pH 7.0,Ki,20 ± 4 µM
Cc1ccc2ccc(-c3cccc(C#N)c3)cc2n1,"Grm5 (Rattus norvegicus, UniProt P31424)","calcium flux, antagonist",,,IC50,0.029 ± 0.005 µM
COc1ccc(CNC(=O)c2ccccc2CNCc2ccc3c(c2C(=O)O)OCO3)cc1,"Gag-Pol polyprotein, integrase (gag-pol, Human immunodeficiency virus 1, UniProt P12497, C1203S/F1286D/F1332H)","binding, surface plasmon resonance",,,Kd,> 2000 µM
CC[C@H](C)[C@H](N)C(=O)N[C@@H](CC(N)=O)C(=O)N[C@H]1CSC(=O)[C@H](CC(C)C)NC(=O)[C@H](CC(C)C)NC(=O)[C@H](Cc2ccccc2)NC(=O)[C@H](CC(=O)O)NC1=O,"Accessory gene regulator protein C (Staphylococcus aureus, UniProt O33590)","agonist, β-lactamase reporter",,,EC50,0.406 µM
CCOc1c(SSc2cnn(-c3ccccc3)c(=O)c2OCC)cnn(-c2ccccc2)c1=O,"srtA (Staphylococcus aureus, UniProt Q2FV99)",inhibitor,,,IC50,1.5 ± 0.4 µM
OC[C@@]12C[C@@H]1[C@@H](n1cnc3c(NC(C4CC4)C4CC4)nc(Cl)nc31)[C@H](O)[C@@H]2O,"HTR2C (Homo sapiens, UniProt P28335)",,,added: [3H]mesulergine,Ki,0.0835 µM
CC(=O)N[C@H]1[C@H](Oc2ccccc2-c2cccc(C(=O)O)c2)O[C@H](CO)[C@H](O)[C@@H]1O,"ydeQ (Escherichia coli, UniProt A0A0H2V7F6)",ELISA,,,IC50,0.64 µM
N[C@@H](Cc1ccc(O)cc1)C(=O)N1Cc2ccccc2C[C@H]1CN[C@@H](CC1CCCCC1)C(=O)N[C@@H](Cc1ccccc1)C(=O)O,"Oprm1 (Rattus norvegicus, UniProt P33535)",,,,Ki,1.05 ± 0.01 µM
COC(=O)C1=C(c2ccc(F)cc2)CC2CCC1S2 (racemic),"SLC6A4 (Homo sapiens, UniProt P31645)",inhibitor,,,IC50,> 10 µM
COc1ccc(CC[C@H]2OC(=O)[C@@H]3CCCCN3C(=O)C(=O)C(C)(C)COC(=O)C=CCCN(C)C(=O)[C@H](CC(C)C)N(C)C(=O)[C@H]3CCCN3C(=O)[C@H](Cc3ccccc3)N(C)C(=O)C(c3ccccc3)NC(=O)CCC(=O)Nc3cccc2c3)cc1OC (some centres unmarked),"FKBP1A/SLC29A1 (Homo sapiens, UniProt P62942+Q99808)","adenosine uptake, inhibitor",,,IC50,0.005 µM
NCCNCCSc1ccccc1,,,plasma,"100 µg/mL, 24 h, room temperature",short-term stability,94.8 ± 2.73 % remaining
C[C@H](N)C(=O)N[C@@H](CO)C(=O)N[C@@H](C)C(=O)N[C@H]1CSC(=O)[C@H](Cc2ccccc2)NC(=O)[C@H](Cc2ccc(O)cc2)NC(=O)[C@H](C)NC(=O)[C@H](C)NC1=O,"Accessory gene regulator protein C (Staphylococcus epidermidis, UniProt Q8VSX2)","antagonist, reporter strain",,,IC50,0.00087 µM
CC(=O)N1CCC[C@@H]1C(=O)N[C@@H](C)C(=O)N[C@@H](Cc1ccccc1)B(O)O,"Proteasome subunit beta type-2, β2 subunit (Plasmodium falciparum, UniProt Q8I261+Q8I6T3)","β2 activity, inhibitor",,added: Ac-WLR-AMC substrate,IC50,> 10 µM
c1ccc2c(c1)ccc[n+]2CCCCCCCCCC[n+]1cccc2ccccc21,BJ fibroblasts,"cytotoxicity, MTT",,,IC50,1230 µM
Cc1cc(O)cc(C)c1C[C@@H]1NC[C@H](CCCCN)NC(=O)[C@H](Cc2ccccc2)NC(=O)[C@@H](CCCNC(=N)N)NC1=O,"Oprm1 (Rattus norvegicus, UniProt P33535)",,,,Ki,0.00902 ± 0.00151 µM
O=C(N[C@@H]1CC[C@@]2(O)[C@H]3Cc4ccc(O)c5c4[C@@]2(CCN3CC2CC2)[C@H]1O5)c1ccnc(Cl)c1,"Oprm1 (Mus musculus, UniProt P42866)",radioligand binding,CHO,added: [3H]naloxone,Ki,0.0001 ± 4e-05 µM
c1ccc(C(CCn2ccnc2)(c2ccccc2)c2ccccc2)cc1,"cyp121 (Mycobacterium tuberculosis, UniProt P9WPP7)",,,,Kd,8.8 ± 3 µM
O=C(Oc1c(Br)cc(Br)cc1CNC(=O)c1ccccc1[N+](=O)[O-])c1ccccc1Cl,"lasR (Pseudomonas aeruginosa, UniProt P25084)",agonist,,,EC50,0.071 µM

# Some of these lines once more:
SMILES,tested on,test,system,setting,quantity,value
COc1ccc(CC[C@H]2OC(=O)[C@@H]3CCCCN3C(=O)C(=O)C(C)(C)COC(=O)C=CCCN(C)C(=O)[C@H](CC(C)C)N(C)C(=O)[C@H]3CCCN3C(=O)[C@H](Cc3ccccc3)N(C)C(=O)C(c3ccccc3)NC(=O)CCC(=O)Nc3cccc2c3)cc1OC (some centres unmarked),"FKBP1A/SLC29A1 (Homo sapiens, UniProt P62942+Q99808)","adenosine uptake, inhibitor",,,IC50,0.005 µM
